Measured values from different studies.
Lines come from different studies, so protocols differ. ± gives the spread as reported.
MAP4K2: Mitogen-activated protein kinase kinase kinase kinase 2 (MAP4K2, Homo sapiens, UniProt Q12851)
UniProt Q12851, sequence (whole entry, looked up): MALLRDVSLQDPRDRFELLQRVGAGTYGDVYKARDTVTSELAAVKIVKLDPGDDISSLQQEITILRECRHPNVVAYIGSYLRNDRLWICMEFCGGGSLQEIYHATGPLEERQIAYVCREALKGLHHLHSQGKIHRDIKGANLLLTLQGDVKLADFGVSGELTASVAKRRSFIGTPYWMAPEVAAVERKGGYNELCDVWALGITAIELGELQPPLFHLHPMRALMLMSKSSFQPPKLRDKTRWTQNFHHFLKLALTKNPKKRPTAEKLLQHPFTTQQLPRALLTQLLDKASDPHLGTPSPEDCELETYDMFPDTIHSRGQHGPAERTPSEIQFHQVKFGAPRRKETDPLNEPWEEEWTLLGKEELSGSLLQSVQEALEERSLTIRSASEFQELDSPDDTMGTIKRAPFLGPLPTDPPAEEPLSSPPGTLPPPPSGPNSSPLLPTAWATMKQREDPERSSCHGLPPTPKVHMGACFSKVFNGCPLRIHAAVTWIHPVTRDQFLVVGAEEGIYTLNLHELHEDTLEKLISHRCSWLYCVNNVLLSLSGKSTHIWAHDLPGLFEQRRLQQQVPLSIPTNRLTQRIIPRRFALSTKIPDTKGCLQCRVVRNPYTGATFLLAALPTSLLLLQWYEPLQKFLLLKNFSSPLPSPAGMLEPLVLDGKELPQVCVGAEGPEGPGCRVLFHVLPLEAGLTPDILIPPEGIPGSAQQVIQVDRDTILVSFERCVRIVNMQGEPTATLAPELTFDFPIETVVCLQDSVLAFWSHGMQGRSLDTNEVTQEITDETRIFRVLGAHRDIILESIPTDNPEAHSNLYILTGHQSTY
TRPM8: Transient receptor potential cation channel subfamily M member 8 (TRPM8, Homo sapiens, UniProt Q7Z2W7)
UniProt Q7Z2W7, sequence (whole entry, looked up): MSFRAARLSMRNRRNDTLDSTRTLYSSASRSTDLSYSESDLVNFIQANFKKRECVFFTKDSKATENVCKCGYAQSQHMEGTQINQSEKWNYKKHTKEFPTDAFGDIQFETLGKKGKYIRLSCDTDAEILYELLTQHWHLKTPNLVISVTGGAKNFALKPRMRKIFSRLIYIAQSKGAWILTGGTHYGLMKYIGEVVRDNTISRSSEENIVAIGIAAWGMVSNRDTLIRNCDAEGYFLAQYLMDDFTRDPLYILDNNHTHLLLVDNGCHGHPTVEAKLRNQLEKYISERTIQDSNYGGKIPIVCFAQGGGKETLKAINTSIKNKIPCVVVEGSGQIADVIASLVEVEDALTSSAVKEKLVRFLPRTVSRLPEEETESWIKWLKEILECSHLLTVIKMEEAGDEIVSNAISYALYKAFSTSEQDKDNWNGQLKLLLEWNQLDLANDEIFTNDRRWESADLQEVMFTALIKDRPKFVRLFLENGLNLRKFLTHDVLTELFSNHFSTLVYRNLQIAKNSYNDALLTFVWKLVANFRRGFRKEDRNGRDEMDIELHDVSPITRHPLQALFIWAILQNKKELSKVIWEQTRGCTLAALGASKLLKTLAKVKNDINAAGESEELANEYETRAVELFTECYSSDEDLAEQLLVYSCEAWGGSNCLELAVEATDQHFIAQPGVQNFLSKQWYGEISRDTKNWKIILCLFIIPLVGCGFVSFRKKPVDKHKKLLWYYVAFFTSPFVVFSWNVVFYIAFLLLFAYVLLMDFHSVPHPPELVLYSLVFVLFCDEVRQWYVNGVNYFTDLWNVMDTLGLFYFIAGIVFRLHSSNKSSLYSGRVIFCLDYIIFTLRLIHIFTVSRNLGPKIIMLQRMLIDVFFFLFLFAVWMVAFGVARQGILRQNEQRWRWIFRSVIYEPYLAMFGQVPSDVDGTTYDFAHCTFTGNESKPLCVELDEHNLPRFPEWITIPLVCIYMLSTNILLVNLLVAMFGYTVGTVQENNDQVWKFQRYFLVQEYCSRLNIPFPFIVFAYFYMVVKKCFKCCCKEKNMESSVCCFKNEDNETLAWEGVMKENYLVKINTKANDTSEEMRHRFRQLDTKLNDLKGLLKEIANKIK
spsB: Signal peptidase IB (spsB, Staphylococcus aureus, UniProt Q5HHB9)
UniProt Q5HHB9, sequence (whole entry, looked up): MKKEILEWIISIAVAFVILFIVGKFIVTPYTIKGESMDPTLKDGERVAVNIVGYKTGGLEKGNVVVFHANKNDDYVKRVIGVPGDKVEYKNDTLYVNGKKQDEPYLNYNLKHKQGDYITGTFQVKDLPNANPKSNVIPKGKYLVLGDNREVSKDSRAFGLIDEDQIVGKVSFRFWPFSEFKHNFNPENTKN
UniProt P42684, sequence (whole entry, looked up): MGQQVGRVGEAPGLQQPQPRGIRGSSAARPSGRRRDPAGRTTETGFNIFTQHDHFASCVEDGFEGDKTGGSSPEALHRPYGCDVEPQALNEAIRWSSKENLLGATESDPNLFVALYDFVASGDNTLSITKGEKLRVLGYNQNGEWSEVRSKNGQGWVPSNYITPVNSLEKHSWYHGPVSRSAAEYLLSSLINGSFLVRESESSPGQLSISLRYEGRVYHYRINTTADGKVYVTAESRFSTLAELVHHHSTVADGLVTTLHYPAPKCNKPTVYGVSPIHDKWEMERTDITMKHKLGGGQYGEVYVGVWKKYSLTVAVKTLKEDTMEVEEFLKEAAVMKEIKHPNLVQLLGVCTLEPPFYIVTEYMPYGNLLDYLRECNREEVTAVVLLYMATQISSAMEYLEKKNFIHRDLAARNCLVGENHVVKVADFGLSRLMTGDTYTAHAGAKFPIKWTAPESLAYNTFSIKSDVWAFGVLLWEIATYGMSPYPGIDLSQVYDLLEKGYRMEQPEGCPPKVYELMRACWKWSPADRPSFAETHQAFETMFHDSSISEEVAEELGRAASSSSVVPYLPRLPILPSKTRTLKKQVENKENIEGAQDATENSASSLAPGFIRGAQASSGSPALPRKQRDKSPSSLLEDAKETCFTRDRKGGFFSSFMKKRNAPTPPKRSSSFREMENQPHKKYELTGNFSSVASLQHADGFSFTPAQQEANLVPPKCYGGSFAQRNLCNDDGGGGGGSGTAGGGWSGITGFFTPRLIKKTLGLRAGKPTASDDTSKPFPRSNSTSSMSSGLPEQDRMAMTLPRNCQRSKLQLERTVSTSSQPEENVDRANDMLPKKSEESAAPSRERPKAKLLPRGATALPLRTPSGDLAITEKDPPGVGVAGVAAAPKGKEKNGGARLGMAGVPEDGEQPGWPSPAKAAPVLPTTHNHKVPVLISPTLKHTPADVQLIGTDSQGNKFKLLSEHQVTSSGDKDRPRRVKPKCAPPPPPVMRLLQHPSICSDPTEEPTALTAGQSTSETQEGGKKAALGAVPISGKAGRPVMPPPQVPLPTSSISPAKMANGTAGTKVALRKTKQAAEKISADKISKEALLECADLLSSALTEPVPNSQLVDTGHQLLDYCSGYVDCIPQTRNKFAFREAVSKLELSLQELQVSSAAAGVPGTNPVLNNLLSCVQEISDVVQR
UniProt Q13177, sequence (whole entry, looked up): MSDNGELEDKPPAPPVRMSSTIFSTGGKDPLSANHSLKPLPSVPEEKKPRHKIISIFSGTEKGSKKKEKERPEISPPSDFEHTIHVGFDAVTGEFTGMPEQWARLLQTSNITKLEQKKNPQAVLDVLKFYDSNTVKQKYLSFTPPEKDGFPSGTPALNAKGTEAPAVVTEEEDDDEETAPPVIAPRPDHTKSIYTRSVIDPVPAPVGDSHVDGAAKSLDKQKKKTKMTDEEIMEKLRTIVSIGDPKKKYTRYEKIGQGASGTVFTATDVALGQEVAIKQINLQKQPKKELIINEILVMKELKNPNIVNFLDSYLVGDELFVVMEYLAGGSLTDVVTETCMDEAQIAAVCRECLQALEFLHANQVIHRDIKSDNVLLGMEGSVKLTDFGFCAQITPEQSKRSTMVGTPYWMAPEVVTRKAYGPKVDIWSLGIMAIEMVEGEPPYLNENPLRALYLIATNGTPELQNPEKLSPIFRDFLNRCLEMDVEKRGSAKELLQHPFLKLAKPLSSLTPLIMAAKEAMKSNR
UniProt Q9H1R3, sequence (whole entry, looked up): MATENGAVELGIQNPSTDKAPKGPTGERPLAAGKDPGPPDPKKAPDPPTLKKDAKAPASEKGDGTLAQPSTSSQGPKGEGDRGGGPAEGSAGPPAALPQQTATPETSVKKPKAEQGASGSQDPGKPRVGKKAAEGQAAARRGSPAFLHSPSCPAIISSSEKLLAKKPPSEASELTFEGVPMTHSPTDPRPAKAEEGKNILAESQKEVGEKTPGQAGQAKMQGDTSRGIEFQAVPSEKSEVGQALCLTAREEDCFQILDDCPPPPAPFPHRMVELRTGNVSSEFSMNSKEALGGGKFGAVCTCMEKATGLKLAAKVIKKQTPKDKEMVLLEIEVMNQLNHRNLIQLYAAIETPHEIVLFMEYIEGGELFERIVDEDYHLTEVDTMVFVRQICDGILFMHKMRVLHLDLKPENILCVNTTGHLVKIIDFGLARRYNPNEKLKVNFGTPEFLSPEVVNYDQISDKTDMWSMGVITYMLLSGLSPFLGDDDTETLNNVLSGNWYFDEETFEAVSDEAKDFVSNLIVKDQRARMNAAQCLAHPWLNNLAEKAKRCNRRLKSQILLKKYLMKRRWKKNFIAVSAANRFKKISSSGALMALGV
UniProt Q00532, sequence (whole entry, looked up): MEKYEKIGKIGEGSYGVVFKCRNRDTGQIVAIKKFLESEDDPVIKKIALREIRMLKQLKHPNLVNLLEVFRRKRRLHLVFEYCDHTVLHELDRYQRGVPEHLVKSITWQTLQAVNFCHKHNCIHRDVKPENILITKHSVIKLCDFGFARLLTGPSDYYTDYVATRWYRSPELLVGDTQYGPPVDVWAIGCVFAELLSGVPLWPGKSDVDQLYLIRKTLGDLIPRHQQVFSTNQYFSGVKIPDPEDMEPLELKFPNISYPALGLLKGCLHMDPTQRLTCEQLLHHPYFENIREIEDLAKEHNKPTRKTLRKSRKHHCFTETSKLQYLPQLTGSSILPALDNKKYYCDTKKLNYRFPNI

For C=CC(=O)N1CCC[C@@H](n2nc(-c3ccc(Oc4ccccc4)cc3)c3c(N)ncnc32)C1, the remaining activity was 13.9% (CDKL1 (Homo sapiens, UniProt Q00532); 1 µM).
CNc1ncc2c(/C=C/C(=O)N3CCC(OC)CC3)nn(Cc3cccc(C(F)(F)F)c3)c2n1 gave a remaining activity of 95% (MYLK2 (Homo sapiens, UniProt Q9H1R3); kinase activity, inhibitor; 1 µM; relative to: untreated control).
COc1cc(-c2cncc3c2CN(C)Cc2cc(N4CCNCC4)ccc2-3)cc(OC)c1OC has a remaining activity of 85% (MAP4K2; kinase activity; 1 µM, human enzyme, added: ATP 10 µM; relative to: DMSO control).
With O=C(O)c1ccc(Nc2ncc3c(n2)-c2ccc(Cl)cc2C(c2c(F)cccc2F)=NC3)cc1 the remaining activity was 40% (Arg(h); kinase activity; 1 µM).
CCN(CC)CCCCN1c2ccccc2Oc2ccc(Cl)cc21 gave a remaining activity of 92.8 ± 14.6% (TRPM8; antagonist; HEK293; 5 µM; relative to: control).
O=C(Nc1ccc2c(c1)OCCO2)Nc1ccc(Cl)c(C(F)(F)F)c1 gave a remaining activity of 128% (spsB; peptidase activity, activator, FRET peptide cleavage; Staphylococcus aureus, membranes; 50 µM; relative to: DMSO).
For Cc1cc(Nc2cc(N3CCN(C)CC3)nc(Sc3ccc(NC(=O)C4CC4)cc3)n2)[nH]n1, the remaining activity was 100% (WNK2 (Homo sapiens, UniProt Q9Y3S1); kinase activity, KinaseProfiler; 0.03 µM, species human; relative to: control).
The remaining activity of O=C(Cc1ccc(Cl)c(C(F)(F)F)c1)Nc1ccc2c(c1)OC(F)(F)O2 is reported as 108% (spsB; peptidase activity, activator, FRET peptide cleavage; Staphylococcus aureus, membranes; 10 µM; relative to: DMSO).
Cc1ccc(NC2=CC(=O)c3sc(C)nc3C2=O)cc1 has a remaining activity of 75 ± 12.8% (TRPM8; antagonist; HEK293; 5 µM; relative to: control).
CN(C(=O)Nc1ccc(Cl)c(C(F)(F)F)c1)c1ccc2c(c1)OC(F)(F)O2 has a remaining activity of 112% (spsB; peptidase activity, activator, FRET peptide cleavage; Staphylococcus aureus, membranes; 10 µM; relative to: DMSO).
For Nc1[nH]nc2nc3ccccc3nc12, the remaining activity was 95.8 ± 10% (TRPM8; antagonist; HEK293; 5 µM; relative to: control).
The remaining activity of CCCCNC(=O)c1ccc(NC(=O)Nc2ccc(Cl)c(C(F)(F)F)c2)cc1 is reported as 121% (spsB; peptidase activity, activator, FRET peptide cleavage; Staphylococcus aureus, membranes; 10 µM; relative to: DMSO).
With CC(C)c1nn(-c2c(Cl)cccc2Cl)c2nc(Cc3ccc(OCCO)cc3)[nH]c(=O)c12 the remaining activity was 106 ± 5.47% (TRPM8; antagonist; HEK293; 5 µM; relative to: control).
O=C(Nc1cccc(NC(=O)Nc2ccc(Cl)c(C(F)(F)F)c2)c1)Nc1ccc(Cl)c(C(F)(F)F)c1 gave a remaining activity of 153% (spsB; peptidase activity, activator, FRET peptide cleavage; Staphylococcus aureus, membranes; 10 µM; relative to: DMSO).
With O=C(Nc1ccc(Cl)cc1)c1ccccc1NCc1ccncc1 the remaining activity was 103 ± 2.44% (TRPM8; antagonist; HEK293; 5 µM; relative to: control).
For COc1cc(F)ccc1-c1ncnc(Nc2cccc(C[S@](C)(=N)=O)c2)n1, the remaining activity was 32% (MAP4K2; kinase activity; 10 µM, added: 10 µM ATP).
Nc1nccc(-c2c(-c3ccc(F)cc3)ncn2C2CCNCC2)n1 has a remaining activity of 105 ± 9.01% (TRPM8; antagonist; HEK293; 5 µM; relative to: control).
COc1ccc(F)cc1C(=O)NCc1ccc(-c2nn([C@@H](C)C(F)(F)F)c(N)c2C(N)=O)cc1 gave a remaining activity of 96.9 ± 1.5% (ABL2 (Homo sapiens, UniProt P42684); 1000 nM, added: ATP at Km).
The remaining activity of CSc1nc(-c2ccnc(N[C@@H](C)c3ccccc3)c2)c(-c2ccc(F)cc2)[nH]1 (racemic) is reported as 85 ± 7.68% (TRPM8; antagonist; HEK293; 5 µM; relative to: control).
O=C(Nc1ccc(Cl)c(C(F)(F)F)c1)N1CCC(F)(F)CC1 has a remaining activity of 119% (spsB; peptidase activity, activator, FRET peptide cleavage; Staphylococcus aureus, membranes; 100 µM; relative to: DMSO).
The remaining activity of COc1cc(Nc2ncc3c(n2)-c2ccc(Cl)cc2C(c2c(F)cccc2OC)=NC3)ccc1C(=O)O is reported as 18% (SRC N1; kinase activity; 1 µM).
The remaining activity of O=C(Nc1ccc(Cl)c(C(F)(F)F)c1)Nc1ccc2ccccc2c1 is reported as 153% (spsB; peptidase activity, activator, FRET peptide cleavage; Staphylococcus aureus, membranes; 50 µM; relative to: DMSO).
N#CC(C#N)=C(N)/C(C#N)=C/c1ccc(O)cc1 has a remaining activity of 87.4 ± 9.24% (TRPM8; antagonist; HEK293; 5 µM; relative to: control).
The remaining activity of O=C1NC(=O)/C(=C/c2ccc(-c3ccc(F)cc3O)o2)S1 is reported as 89% (PAK2 (Homo sapiens, UniProt Q13177); enzyme activity; 10 µM).
COc1cc(NC(=O)Nc2ccc(Cl)c(C(F)(F)F)c2)cc(OC)c1OC has a remaining activity of 242% (spsB; peptidase activity, activator, FRET peptide cleavage; Staphylococcus aureus, membranes; 100 µM; relative to: DMSO).
With O=C(NC1CCC1)c1ccc2nc(-c3cccc(NS(=O)(=O)NCCN4CCCCC4)c3)cn2c1 the remaining activity was 30% (FLT3 (Homo sapiens, UniProt P36888, D835V); enzyme activity; 10 µM).

Repeated from above:
The remaining activity of CCCCNC(=O)c1ccc(NC(=O)Nc2ccc(Cl)c(C(F)(F)F)c2)cc1 is reported as 121% (spsB; peptidase activity, activator, FRET peptide cleavage; Staphylococcus aureus, membranes; 10 µM; relative to: DMSO).
COc1cc(-c2cncc3c2CN(C)Cc2cc(N4CCNCC4)ccc2-3)cc(OC)c1OC has a remaining activity of 85% (MAP4K2; kinase activity; 1 µM, human enzyme, added: ATP 10 µM; relative to: DMSO control).
CN(C(=O)Nc1ccc(Cl)c(C(F)(F)F)c1)c1ccc2c(c1)OC(F)(F)O2 has a remaining activity of 112% (spsB; peptidase activity, activator, FRET peptide cleavage; Staphylococcus aureus, membranes; 10 µM; relative to: DMSO).
